Results of several laboratories.
Each numbered part is a random draw from the data of one study; scales do not carry over between parts.

Sample 1 — technique: Sort-seq; item: YFP reporter; sample: E. coli; notes: PhoQ-PhoP variant library; with: 10 µM Mg2+; relative to: high Mg2+ state; reading: higher = stronger signaling; measurement: fold induction
Molecule: PhoQ, residues 284 288 289 292 302 303 NSMLDC
PhoP, residues 12 14 15 18 19 ICWRQ (Escherichia coli, UniProt P23836): 4.32
PhoP, residues 12 14 15 18 19 VHTVL (Escherichia coli, UniProt P23836): 5.93
PhoP, residues 12 14 15 18 19 TQCLL (Escherichia coli, UniProt P23836): 7.64

Sample 2 — technique: RNA Bind-n-Seq; molecule type: RNA; sample: in vitro; concentration: not given; notes: RNA with constant flanks, ends assumed; relative to: input RNA pool; reading: higher = stronger binding; measurement: bound/input enrichment
Target: RING finger protein unkempt homolog, zinc fingers 1-6, GST-SBP tag (UNK, Homo sapiens, UniProt Q9C0B0, residues 30-357)
All sequences stand within: GGGAGUUCUACAGUCCGACGAUC … CAACAGAGGAUUGAGCAUCA
Target sequence (chain): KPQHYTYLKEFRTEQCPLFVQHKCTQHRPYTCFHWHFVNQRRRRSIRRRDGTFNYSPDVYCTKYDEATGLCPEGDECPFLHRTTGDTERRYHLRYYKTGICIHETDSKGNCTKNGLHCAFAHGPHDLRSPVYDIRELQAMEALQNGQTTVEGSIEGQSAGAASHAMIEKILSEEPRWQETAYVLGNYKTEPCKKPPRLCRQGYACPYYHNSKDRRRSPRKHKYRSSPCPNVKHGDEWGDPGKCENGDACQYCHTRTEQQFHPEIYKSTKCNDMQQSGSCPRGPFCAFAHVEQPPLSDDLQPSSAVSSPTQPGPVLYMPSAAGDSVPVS
GCUUAUAAAGCUGCUAGUGAUAUUGCAAUGACAGAACUUCCACCAACGCAUCCUAUUCGCUCCGGUCUUGCUCUCAAUUUUUCCGUAUUCUACUACGAAAUUCUUAAUUCCCCUGACCGU: 0.42 ratio
ACAGACAUCCGCUGCCCCUUUGAAAAACGAAGAGAUGCAGCAUGCGUGUUUUGGGACAAUGCCGUAUACAUUUUGGGAGGCUCUCAGCUUUUCCCAAUAAAGCGAAUGGACUGCUAUAAU: 0.0854 ratio
GUUUUUUGUUGUUGUUGUUGUUGUUUUUUUUUUUUGAGGUGGGGAAUUUCUGUUUAUUUCAUUUUGCCGAGCUGGACAAUUGAGUCCAGGGCCUCUCAAAUGCUAGGCAAAACUCUGUCA: 0.777 ratio
GCUGAGCCUCAGCUGUAUGGUAAUGCCACCAGUGACCAUCCCAACAAUCAAGAUCAAAGCCGCAGUCUUCCUGAAGAAUGUGUACCUUCAGAUGAAAGUACUCCUCCGAGUAUUAAAAAA: 0.156 ratio
GUCUGGAGUCUCUCGGGACACGACCAGCUGAUUGUAGACACCGUGUUGAUAUCACCCGAAAUGAAGACCUUGUCAACCAAUAGAGGAACUGUCUGAACCAACUGGGUACUGAUGUCUCUG: 0.101 ratio
CGAAACAGCAGCAGGUGACGACGGAGAUGAAGUAUUUGUAGAGGCGGAGUCUGAAGGUAUCCGUUCAGAGGCAGGCCUAGAAAUUGAUAGCCAGCAGGAAGAGGAGCCUGUCCAAGCAUC: 0.495 ratio
UCUGGGCAGAGUGAGGAGUCCCCUCGGAAACGACGGAAGGCAACGGAAGCCAUAGACUCUCUCCGGAAAUCCAAACGACUUCGGAAUAGGAAGUAGAUUGGAAUAUGGCUCUAGCUCCAG: 0.276 ratio
UUCGUUGCCUGUAAGCCCACUUGCUUCUCACUUCAUCAGACAAGCUCAAUACACACAAGACCGUAAUUUAAUGGGAGCUGUUAGGCUGGUCCACACGUGAAGAGAAACAAUUUCUAGCCU: 0.148 ratio
GAGGUUGUUAAGGACAAAGCAGGACCUCAUAAGGAAAUCUAUCCCUAUGUCAUCCAGGAACUCCGACCAACUUUAAAUGAAUUGGGAAUCUCCACUCCAGAGGAGCUGGGCCUUGACAAA: 0.15 ratio
ACCGCCCGGGUCGUGGAGCCAGGAGCGACGUCACCGCCAUGGCGGGCAUCAAAGCUUUAAUCCGUUUGUCCUUUGGAGGAGCGAUCGGGCUGAUGUUCCUGAUGCUUGGAUGUGCCCUUC: 0.165 ratio
ACCUCCCAAGUCCUGUAUGAGUGGGAACAGGGAUUUUCUCAGUCCUUCACUCAAGAACAAGCCGCUGAUAUUGAUGGACAGUAUGCAAUGACUCGAGCUCAGAGGGUACGAGCUGCUAUG: 0.164 ratio

Sample 3 — technique: RNA Bind-n-Seq; molecule type: RNA; sample: in vitro; concentration: 200 nM; notes: whole 134-nt RNA, ends assumed; with: 150 mM LiCl; relative to: input library; reading: higher = stronger binding; measurement: log2 enrichment; each molecule: 7-deaza-guanosine replaces G
Target: Fragile X messenger ribonucleoprotein 1, C-terminal low-complexity region (Fmr1, Mus musculus, UniProt P35922)
All sequences stand within: GGGAGUUCUACAGUCCGACGAUC … UGGAAUUCUCGGGUGUCAAGG
CACAGACAACACGCACCCACACAGACACAGAGGGAAGGCGUUGGGAUGGGGACAGGGUGCACAGCAGGGCGGGGUAGGACCCCAGCCCCU: -1.33
CGCAGAAGUCGCGUGUCUAGGUGAGUCGCGGUGGGUCCUCGCUUGCAGUUCAGCGACCACGGUGGGUACCGUUUUUGCGAGGAUUGUUUG: -1.47
GAGAGCGAGGUGGCUUCAAUAAGCCUGGUGGUAAGUUUUUGAGUAUUACCAUAGAUAGUGUUUAAAAAAAAAUGCAGUCAGUUUUUAGAA: -0.256
AAGUCCUGUGCUACACAUCGUAUGUACCGAAUCGGGAAAAAAAGGGUGGGAAAGGGAAAGUAUUAUGUUACGCCGUUCGGAUCUGCACUU: -1.07
CCUGUGCUACACAUCGUAUGUACCGAAUCGGGAAAAAAAGGGAAAAAAAGGGAAAAAAAGGAAAGUAUUAUGUUACGCCGUUCGGAUCUG: -0.0769
GUCCUGUGCUACACAUCGUAUGUACCGAAUCGGGUUUUUGGGUUUUUGGGAAAAAGGGAAAGUAUUAUGUUACGCCGUUCGGAUCUGCAC: -1.12
UUUAGGUGUUAGACGGUACCGACAACCAGUAUUUGGGCCUGCAGAUUGGACAGCCCCAGGAUGAAGAUGAGGAAGCCACAGGUAUUCUUC: -3.36
UGGGAGGUGGAUUUUGUUUAUUUUUUUAGCUCAUUUCCAGGGGUGGGAAUUUUUUAUUAAUAUGUGUCAUGAAUAAAGUUGUUUUUGAAA: -0.346
GUCAAGUGCUUCUGCUCCUGAUGUGGAUGACCCAGAGGCAUUCCCAGCUCUGGCUUAACUGGAUGCCAUAAGACAACCCUGGUUCCUUUG: -1.33
GCAGGAAGUAAAAACAAAUGGAAAUGCUUCGGAUAGUGGCAGGGGAGGGGGUUGCUAAGGAAAGGGUGGGAUGGGAGUGGGUAAAGAGUU: 1.49
UCCUCAAGUCCUGUGCUACACAUCGUAUGUACCGAAUCGGGAGGAGGGAGGAAAGUAUUAUGUUACGCCGUUCGGAUCUGCACUUCCAGC: -2.24

Sample 4 — technique: universal PBM; molecule type: double-stranded DNA, one strand shown; sample: in vitro; concentration: 600 nM; reading: higher = stronger binding; measurement: E-score
Target: Sal-like protein 4, full length isoform A (SALL4, Homo sapiens, UniProt Q9UJQ4, residues 1-1053)
Sequence of UniProt Q9UJQ4 (whole entry, looked up): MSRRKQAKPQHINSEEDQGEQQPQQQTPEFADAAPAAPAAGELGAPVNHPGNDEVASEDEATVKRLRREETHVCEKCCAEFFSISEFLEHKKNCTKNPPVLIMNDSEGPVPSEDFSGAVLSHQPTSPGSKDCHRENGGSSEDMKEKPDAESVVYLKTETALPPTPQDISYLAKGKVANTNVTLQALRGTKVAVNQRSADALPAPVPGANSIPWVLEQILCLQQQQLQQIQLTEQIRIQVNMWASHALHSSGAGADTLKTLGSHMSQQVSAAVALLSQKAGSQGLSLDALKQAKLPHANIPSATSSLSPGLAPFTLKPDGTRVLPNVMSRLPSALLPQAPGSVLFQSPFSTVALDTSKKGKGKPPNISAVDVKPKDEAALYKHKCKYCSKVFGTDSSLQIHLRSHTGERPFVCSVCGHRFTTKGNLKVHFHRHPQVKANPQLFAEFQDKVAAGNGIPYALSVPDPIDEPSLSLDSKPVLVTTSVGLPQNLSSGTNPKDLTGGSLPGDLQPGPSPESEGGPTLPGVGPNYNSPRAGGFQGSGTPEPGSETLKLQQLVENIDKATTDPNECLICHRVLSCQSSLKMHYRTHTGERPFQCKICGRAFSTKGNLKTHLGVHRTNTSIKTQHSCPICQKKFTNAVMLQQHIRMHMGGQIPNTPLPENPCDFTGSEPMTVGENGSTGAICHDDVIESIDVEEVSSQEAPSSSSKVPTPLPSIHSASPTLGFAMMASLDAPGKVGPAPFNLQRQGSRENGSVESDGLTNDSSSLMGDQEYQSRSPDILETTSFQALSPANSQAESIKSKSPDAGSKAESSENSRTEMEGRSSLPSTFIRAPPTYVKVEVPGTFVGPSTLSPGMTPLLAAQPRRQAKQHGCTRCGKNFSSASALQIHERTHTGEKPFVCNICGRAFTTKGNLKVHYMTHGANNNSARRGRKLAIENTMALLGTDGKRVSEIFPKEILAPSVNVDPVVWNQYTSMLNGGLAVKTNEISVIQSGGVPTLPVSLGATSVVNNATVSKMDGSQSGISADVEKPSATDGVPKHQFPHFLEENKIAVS
Notes: 8-mer, flanks averaged, mean of replicates
CCCACAGG: -0.265
AAAGCGGT: -0.0543
GCGCCATA: -0.00332
CAGCGAGC: -0.0696
ACCTCACG: -0.179
ACATGGAG: -0.118
ACATCACA: 0.225
CCTGATTC: -0.121
TAAATCGA: 0.256
AATAGGAT: 0.289
AACGTATC: -0.0712
AGATCTGA: -0.0569
ACCTATCT: 0.118
ATGTCTGA: 0.158
GGAGAGGA: -0.219
ATCCAAAA: 0.232
CTTGCTCA: -0.237
AGCTTGGC: -0.235
GCACGTGC: -0.0897
ACCTACGT: 0.00105
GGTCTCAC: -0.0884
TCAGAAAA: 0.119
ACACTTCG: 0.0595
ACATGTGG: 0.0452

Sample 5 — technique: RNA Bind-n-Seq; molecule type: RNA; sample: in vitro; concentration: 365 nM; relative to: no-protein control; reading: higher = stronger binding; measurement: RBNS enrichment (R)
Target: RNA binding protein fox-1 homolog 2, RRM domain, GST-SBP tag (RBFOX2, Homo sapiens, UniProt O43251-10, residues 100-194)
Notes: natural RNA segment, single round, ends assumed
All sequences stand within: GGGAGUUCUACAGUCCGACGAUC … UGGAAUUCUCGGGUGCCAA
Target sequence (chain): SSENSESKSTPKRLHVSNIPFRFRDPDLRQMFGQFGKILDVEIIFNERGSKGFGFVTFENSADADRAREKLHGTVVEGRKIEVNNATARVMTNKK
CAUUUCUUUUUAUAUAUAAACUAUUUAAUAAAAAUGAAAGAUUGAAUGUUCAUGUGUGGGUUAAAAAAAGAAGCUUUAACACUAAUUUUCCAAAGGUUAGGGAAGAUUCC: 0.801
UCUGCUCUUGACUCUGCCAGCCCUGAUUUUCUGGGCUGGGCUCACUGGCUCUCAAUGCCACCUUCGUUAGGAUUCAUGAAAUGAGUCCCUGUCCUUCCUGGUCAUGCUGG: 0.252
UGACAGUCAAGUGCCAUCUGGAUCUUAAGGAGCUUCCAUUUCUCCAGCUCAGUCCAUUGGAAUAGUAUUAGGUUUUGGUUUUUUGUUGUAUUUCCCCCUUUCCACUGGGC: 1.37
UAAAUUGGCAUAAAGCUGCAUACUUUUUGUCUAGCUGUUUGAUUUCAUUUUUUAAUAUAGUAUGCCAAUUUUGUGACUGUUACCAUGUGAAAGUCCUGUUGAAAUGAACA: 0.66
CUCCAUCACAGAUGUCUGGAUGCUUUUGGAAAUGGCCUUGGCUAAAGUAAAAGGGAAAAGUAGAUCCGAUAACUUAAAAACGUAGCUCAUCCCUUACCAUCCAAGGGGCA: 0.483
AUCUGGGGACCCUCUCCCCGGCUGCCUCAGGCUUCUCCCACGAAGAGGAAACGCAAAAAAAGAAAAAGAAAAGGAAUAUAACUACUACGUGCUCAUCCCCUUCCCUCCCG: 0.418
UUAGCUGCAUGUCAUCGGCUCAGCAGUGGGAAGGAAAGGGUACUGCUCUGACCUUGUGUAUUCUGACUCUUUGGAAACCAGGCCCUGCUUUUGCCAAGCCUCCCAUCCUG: 1.47
CUGCUUUUGCUUUGGGUACAGCUAUUUAGUUAGUUGUGUUACAAAGAAUUAUUUUCUGAGAGAAUCUUAAACUUAGAAUAUUCAGAUGCAGUAGAUACUGGCGUGUGGAG: 0.476
UGGUUCCUCUCCCUUUUCCCCUGGUCACGGCUACUCAUGGAAGCAGGACCAGUAAGGGACCUUCGAUAAAAAAAAAAAAGACAAUAAUAAAAAGGCUCAUUAAUGGGAUG: 0.393
GAUCAGUGAGGAGGUGAAUGUAUAAGUUAUGGCCUGGACCCUGCUGCAGAUGCUGUGAGAGUCUGGGGAAAGAUCACAUGGGUCGAGGGUUUCUCUACUGGUCAGGAUGC: 1.41
GGCUGACACGUCCACCCCAGUGCACCCACUCUGCUUUGACUGAGCAGACUGGUGAGCAGACUGGUGGGAUCUGUGCCCAGAGAUGGGACUGGGAGGGCCCACUUCAGGGU: 0.25
AUCAGAAUGCCUGUUUGUGGUUUCAUAUGCAAUAAUAUAUUUUUUUAAAAAUGUGGACUUCAUAGGAAGGCGUGAGUACAAUUAGUAUAAUGCAUAACUCAUUGUUGUCC: 0.546
